Measurements from different studies.
Lines come from different studies, so protocols differ. Numbers after ± are the reported error.
Organism: Trypanosoma cruzi

`C=C1C(=O)O[C@@H]2C[C@H](C)[C@@H]3C[C@H](OC(C)=O)[C@H](OC(C)=O)[C@@]3(C)C[C@H]12` gave a selectivity index of 26 (epimastigote; baseline: CC50 splenocytes over IC50 epimastigotes).
`CC[C@H](C)/C=C/C(=O)N1C[C@@H](C)C[C@H]1C(=O)N[C@@H](CC(C)C)C(=O)N[C@H](C(=O)NC(C)(C)C(=O)N[C@@H](CC(C)C)C(=O)N[C@@H](CC(C)C)C(=O)NC(C)(C)C(=O)NC(C)(C)C(=O)NCCC(=O)N[C@@H](C)CNC)[C@H](O)C(C)C` has an EC50 of 0.005 ± 0.0011 µM (amastigote replication, high-content imaging; C2C12, CA-I/72; 72 h).
`Oc1ccccc1/C=C/c1ccc2ccccc2n1` gave a selectivity index of 1.6 (Tulahuen; baseline: U-937 LC50 over amastigote EC50).
`C=C1C(=O)O[C@@H]2[C@H]1CC[C@H](C)[C@@]1(O[Si](C)(C)C)C=CC(=O)[C@@]21C` has a selectivity index of 0.3 (epimastigote; baseline: CC50 splenocytes over IC50 epimastigotes).
For `N=C(N)NCCC[C@H](NC(=O)[C@H](CCCNC(=N)N)NC(=O)[C@H](CCCNC(=N)N)NC(=O)[C@H](CCC(N)=O)NC(=O)[C@H](CCCNC(=N)N)NC(=O)[C@H](CCCNC(=N)N)NC(=O)[C@H](CCCCN)NC(=O)[C@H](CCCCN)NC(=O)[C@H](CCCNC(=N)N)NC(=O)CNC(=O)[C@H](Cc1ccc(O)cc1)NC(=O)CNC(=O)CNC(=O)[C@H](CCCCN)NC(=O)[C@H](CCCNC(=N)N)NC(=O)[C@H](CCC(N)=O)NC(=O)[C@H](CS)NC(=O)[C@H](CCC(N)=O)NC(=O)CNC(=O)[C@H](CC(N)=O)NC(=O)[C@@H](N)CCCNC(=N)N)C(N)=O`, the IC50 was roughly 20 µM (viability, WST-1; Y strain, trypomastigotes; 24 h).
For `CCC(=O)C[C@@H](O)C[C@@H](C)C[C@H](NC(=O)[C@@H]1C[C@H](C)CN1C(=O)/C=C/[C@@H](C)CC)C(=O)N[C@H](C(=O)NC(C)(C)C(=O)N[C@@H](CC(C)C)C(=O)N[C@@H](CC(C)C)C(=O)NC(C)(C)C(=O)NC(C)(C)C(=O)NCCC(=O)N[C@@H](C)CNC)[C@H](O)C(C)C`, the EC50 was 0.012 ± 0.0014 µM (amastigote replication, high-content imaging; C2C12, CA-I/72; 72 h).
`Cc1nc(C)c(C(=O)Nc2ccc(F)c(-c3nc4ncc(-c5ccccn5)cn4n3)c2)o1` has an EC50 of 0.15 µM (parasite growth; epimastigote).
The EC50 of `Cc1ncnc2c1c(C1=CCSCC1)cn2[C@@H]1O[C@H](CO)[C@@H](O)[C@H]1O` is reported as 20.8 µM (CPRG readout; MRC-5 SV2, Tulahuen CL2 β-galactosidase; 7 days, intracellular amastigotes).
With `C=C1C(=O)O[C@@H]2C[C@H](C)[C@@H]3C[C@H](O[Si](C)(C)C)[C@H](O[Si](C)(C)C)[C@@]3(C)C[C@H]12` the selectivity index was 5 (epimastigote; baseline: CC50 splenocytes over IC50 epimastigotes).
With `Cc1ncc([N+](=O)[O-])n1CC(O)CF` (stereo not shown) the IC50 was 1170 µM (parasite growth; 24 h, trypomastigote).
`CCCC[C@@H](O)C[C@@H](C)C[C@H](NC(=O)[C@@H]1C[C@H](C)CN1C(=O)/C=C/[C@@H](C)CC)C(=O)N[C@H](C(=O)NC(C)(C)C(=O)N[C@@H](CC(C)C)C(=O)N[C@@H](CC(C)C)C(=O)NC(C)(C)C(=O)NC(C)(C)C(=O)NCCC(=O)N[C@@H](C)CNC)[C@H](O)C(C)C` gave an EC50 of 0.0036 ± 0.0012 µM (amastigote replication, high-content imaging; C2C12, CA-I/72; 72 h).
`N=C(N)NCCC[C@H](NC(=O)[C@H](CCCNC(=N)N)NC(=O)[C@H](CCCNC(=N)N)NC(=O)[C@H](CCC(N)=O)NC(=O)[C@H](CCCNC(=N)N)NC(=O)[C@H](CCCNC(=N)N)NC(=O)[C@H](CCCCN)NC(=O)[C@H](CCCCN)NC(=O)[C@H](CCCNC(=N)N)NC(=O)CNC(=O)[C@H](Cc1ccc(O)cc1)NC(=O)CNC(=O)CNC(=O)[C@@H]1CCCCNC(=O)CCC(=O)N[C@@H](CCCNC(=N)N)C(=O)N[C@@H](CC(N)=O)C(=O)NCC(=O)N[C@@H](CCC(N)=O)C(=O)N[C@@H](CS)C(=O)N[C@@H](CCC(N)=O)C(=O)N[C@@H](CCCNC(=N)N)C(=O)N[C@@H](CCCCN)C(=O)N1)C(N)=O`: “reduction of parasitemia” 85% (H1, BALB/c mice, infected; ip, 1.5 mg/kg/day, day 7; baseline: vehicle).
With `CC(C)OC(=O)Nc1cnc2nc(-c3cc(NC(=O)c4ccco4)ccc3F)cn2c1` the EC20 was 0.2 µM (epimastigotes; 0.2% DMSO).

For quick reference, copied from above:
For `CCC(=O)C[C@@H](O)C[C@@H](C)C[C@H](NC(=O)[C@@H]1C[C@H](C)CN1C(=O)/C=C/[C@@H](C)CC)C(=O)N[C@H](C(=O)NC(C)(C)C(=O)N[C@@H](CC(C)C)C(=O)N[C@@H](CC(C)C)C(=O)NC(C)(C)C(=O)NC(C)(C)C(=O)NCCC(=O)N[C@@H](C)CNC)[C@H](O)C(C)C`, the EC50 was 0.012 ± 0.0014 µM (amastigote replication, high-content imaging; C2C12, CA-I/72; 72 h).
The EC50 of `Cc1ncnc2c1c(C1=CCSCC1)cn2[C@@H]1O[C@H](CO)[C@@H](O)[C@H]1O` is reported as 20.8 µM (CPRG readout; MRC-5 SV2, Tulahuen CL2 β-galactosidase; 7 days, intracellular amastigotes).
